Results of several laboratories.
A part holds a random share of what one study measured. Changes are numbered by the printed parent chain.

Set 1 — method: RNA Bind-n-Seq; molecule type: RNA; matrix: in vitro; concentration: 20 nM; notes: 6-mer, flanks averaged, single round; added: 150 mM KCl; relative to: input library; reading: higher = stronger binding; endpoint: 6-mer enrichment (R)
Target: TAR DNA-binding protein 43, full length, His tag (TARDBP, Homo sapiens, UniProt Q13148, residues 1-414)
AUCACC: 0.599
UUGCGA: 0.781
ACUCCC: 0.686
AGCAGU: 0.843
CCCCCC: 0.751
CCCGAG: 0.937
AAUUUU: 0.709
GCGCUC: 0.791
GGAUCA: 0.93
UGAAGU: 0.846
CGGACC: 0.909
UUUUGU: 0.769
UCUAGA: 0.607
CCCGGA: 0.787

Set 2 — method: protein binding microarray; molecule type: double-stranded DNA, one strand shown; matrix: in vitro; concentration: not given; relative to: not given; reading: higher = stronger binding; endpoint: E-score
Target: Histone acetyltransferase KAT6A, winged helix 1, GST fusion (KAT6A, Homo sapiens, UniProt Q92794, residues 1-85)
Notes: 8-mer, flanks averaged, mean of 2 arrays, mostly near background
Residues (chain): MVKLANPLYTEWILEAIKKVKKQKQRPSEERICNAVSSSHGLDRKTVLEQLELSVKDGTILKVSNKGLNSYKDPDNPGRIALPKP
TCTGCAAA: -0.193
CCAGGTCA: -0.165
CAGTCATG: 0.0548
ATGCCAGA: -0.195
GCAAGTTA: -0.0859
ACTTACGC: 0.113
CCGTACTA: 0.303
ACTCTCAA: -0.224
CGATTAAA: -0.00329
AATACACT: -0.274
ACGACCAG: -0.157
AACACTCT: -0.127
GGATCCAA: -0.0663
GCCGCCCC: 0.369
ACTCGAAT: -0.203
GCATATCA: 0.0672
AGTCATGC: 0.0115
CATCGCGG: 0.342
CTTAAACA: -0.0342
CGCGAAAC: 0.312
CAAATCTC: -0.13
CGATGACC: 0.159
CCGAAAGA: -0.118
AGCGTTAC: 0.0556
GATATCAA: -0.0612

Set 3 — method: RNA Bind-n-Seq; molecule type: RNA; matrix: in vitro; concentration: 365 nM; relative to: no-protein control; reading: higher = stronger binding; endpoint: RBNS enrichment (R)
Target: RNA binding protein fox-1 homolog 2, RRM domain, GST-SBP tag (RBFOX2, Homo sapiens, UniProt O43251-10, residues 100-194)
Notes: natural RNA segment, single round, ends assumed
All sequences stand within: GGGAGUUCUACAGUCCGACGAUC … UGGAAUUCUCGGGUGCCAA
Construct (chain): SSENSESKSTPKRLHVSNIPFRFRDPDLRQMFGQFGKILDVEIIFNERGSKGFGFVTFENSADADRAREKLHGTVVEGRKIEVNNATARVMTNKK
CUUGAUUGAGAUCAGAAUCCAUCAGGGUCUUAGACUCUGCCCCCCCUCACCCCACUCUCUUCCCAUGUUCGUUGAUCCACCCCUAUCUGAGAAACUCCAGCCUCAAGAAU: 1.03
CUAUUAUGAAAUAAGUAAAGGUAGAAAAAUAAUGGUCUGUUGUUACUUAAGAAUACUCCUGGCAUAAGUUACUAGAAGUGGUGUGUAUAUAUUCGGGGGAGUAAGGAAAU: 0.838
CCAGCCCACCCUACACCGUGCAAUACCCAGACCCAGCCUGGUCUUUCCCCAGGCCUUUGCCCGCUUCUCCCUGGUCACCCUUGUCCAGUGUGAGUUUUGUCACAUUCUGG: 1.06
GUAGAUGAUGGCUGAGAGCCCUUCCUGUUCCCAGAUGCCUUGGUCCAAAGACCCCACCCCUCUGCUGGUCCUGCCAACGUGUUGGUGCUAUAAGCUGCUUCAGAUAUAAA: 0.524
GGGGUCAUUAUCACUAGACGGGGACGGCCGGGUACAGCGGGGCCUCUCUCACAUGGCCCAGUGACCAAUCCCAUCCUCAUCCUCGGAGGAGCCCCGAAGCUUUCCCCGAC: 0.283
UCCUGAGCACCAAGACCUCUUCUGGUGGUGUGGAACCAGCCAAGAGAUUUCAAGGAAGAGUGAUUAUUUGAUGAAUGCUAUGGGAAUGGCCUCUUCUCUUGGAGUUCUGA: 3.16
AAUUUAUAAGUAACACUGUUGAAACCCUGAUCCCAGUGGAGGCUGUAACCCACCUGCCCCCGCACCACCCCCCUGACCCCUGUUACCGCAUUUGUGUGUAUUAAUGCUGA: 0.902
UGGGAAGGACCCAGUGGGAGAUAAUUGAAAUAUGGGGGCAGUUUCCGCCAUACUGUUCUGGUGAUAGUGAAUAGAUCUCAUGAGAGCUGAUGAUUUUAUAAGAGGUUUCC: 0.909
AUUCUAUUUUUAACCAAAAGUAUACAUUUUACUUUGGCAUGAAAAAUGAUCCCCUUGACUGCAUCAUGCAUGUGCGGAAAAAAUAAAUCCAGAAGUAGCAGAACCCUAGC: 11
UGCUCCAUCAUGAAGACUUGCUUCCCCACCAAAGAUGUCCUGGGAUUCUGCUGGAUCUCAAAGAUGUGCCAAGCCAAGGAAAAAGAUACAAGAGCAGAAUAGUACUUAAA: 0.259
GGAAUAGCCACCUCUUGACCAGUCAUGCCUGUGUGCAUGGACUCAGGGCCACGGCCUUGGCCUGGGCCACCGUGACAUUGGAAGAGCCUGUGUGAGAACUUACUCGAAGU: 0.819
AACAUUUAAUAUUUGUCCACAUGGUUUUACAAAAGUAAAUCUUAAAUUACUAAGCUUUUCCCAUAUGUUCUCGUACUUUCUCAAAUCCCUAUAAAGAAUUACUUGUUAUC: 0.413

Set 4 — target: CCNE1, cyclin fold, Cln2 fusion (human); method: yeast growth competition, sequencing; matrix: yeast; notes: strong parent motif; relative to: not given; reading: higher = stronger binding; endpoint: normalised enrichment score
Starting sequence: BRCA2 docking peptide (human); PSIKRNLLNEFDR; partner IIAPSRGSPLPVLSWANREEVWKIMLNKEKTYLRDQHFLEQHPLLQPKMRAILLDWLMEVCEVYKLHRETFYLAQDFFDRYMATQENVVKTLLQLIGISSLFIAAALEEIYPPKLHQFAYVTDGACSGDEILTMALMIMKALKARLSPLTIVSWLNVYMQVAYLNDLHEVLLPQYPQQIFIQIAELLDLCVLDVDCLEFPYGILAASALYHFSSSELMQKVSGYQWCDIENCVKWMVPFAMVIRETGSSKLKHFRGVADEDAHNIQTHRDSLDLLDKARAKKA
PSIKDNLLNEFDR [R5D]: 0.746
PSIKRNLLTEFDR [N9T]: 1.43
PSWKRNLLNEFDR [I3W]: 4.3
PSTKRNLLNEFDR [I3T]: 0.929
PSIKRNLINEFDR [L8I]: 1.78
PSIQRNLLNEFDR [K4Q]: -0.106
QSIKRNLLNEFDR [P1Q]: 2.19
PSIKRNLLNEFDN [R13N]: 2.1
VSIKRNLLNEFDR [P1V]: 2.06
PSIKRNLLNYFDR [E10Y]: 1.87
PSIKRNLLNQFDR [E10Q]: 0.816
PSDKRNLLNEFDR [I3D]: -0.318
PSIKRNLLNEFDI [R13I]: 3.13
PSQKRNLLNEFDR [I3Q]: -0.0291
PSIKRNLLNEFDF [R13F]: 2.73
PSIKRNLLNEFDW [R13W]: 3.1
PSIKRNLRNEFDR [L8R]: -1.17

Set 5 — method: universal PBM; molecule type: double-stranded DNA, one strand shown; matrix: in vitro; concentration: 600 nM; reading: higher = stronger binding; endpoint: E-score
Target: Sal-like protein 4, full length isoform A (SALL4, Homo sapiens, UniProt Q9UJQ4, residues 1-1053)
Chain of UniProt Q9UJQ4 (whole entry, looked up): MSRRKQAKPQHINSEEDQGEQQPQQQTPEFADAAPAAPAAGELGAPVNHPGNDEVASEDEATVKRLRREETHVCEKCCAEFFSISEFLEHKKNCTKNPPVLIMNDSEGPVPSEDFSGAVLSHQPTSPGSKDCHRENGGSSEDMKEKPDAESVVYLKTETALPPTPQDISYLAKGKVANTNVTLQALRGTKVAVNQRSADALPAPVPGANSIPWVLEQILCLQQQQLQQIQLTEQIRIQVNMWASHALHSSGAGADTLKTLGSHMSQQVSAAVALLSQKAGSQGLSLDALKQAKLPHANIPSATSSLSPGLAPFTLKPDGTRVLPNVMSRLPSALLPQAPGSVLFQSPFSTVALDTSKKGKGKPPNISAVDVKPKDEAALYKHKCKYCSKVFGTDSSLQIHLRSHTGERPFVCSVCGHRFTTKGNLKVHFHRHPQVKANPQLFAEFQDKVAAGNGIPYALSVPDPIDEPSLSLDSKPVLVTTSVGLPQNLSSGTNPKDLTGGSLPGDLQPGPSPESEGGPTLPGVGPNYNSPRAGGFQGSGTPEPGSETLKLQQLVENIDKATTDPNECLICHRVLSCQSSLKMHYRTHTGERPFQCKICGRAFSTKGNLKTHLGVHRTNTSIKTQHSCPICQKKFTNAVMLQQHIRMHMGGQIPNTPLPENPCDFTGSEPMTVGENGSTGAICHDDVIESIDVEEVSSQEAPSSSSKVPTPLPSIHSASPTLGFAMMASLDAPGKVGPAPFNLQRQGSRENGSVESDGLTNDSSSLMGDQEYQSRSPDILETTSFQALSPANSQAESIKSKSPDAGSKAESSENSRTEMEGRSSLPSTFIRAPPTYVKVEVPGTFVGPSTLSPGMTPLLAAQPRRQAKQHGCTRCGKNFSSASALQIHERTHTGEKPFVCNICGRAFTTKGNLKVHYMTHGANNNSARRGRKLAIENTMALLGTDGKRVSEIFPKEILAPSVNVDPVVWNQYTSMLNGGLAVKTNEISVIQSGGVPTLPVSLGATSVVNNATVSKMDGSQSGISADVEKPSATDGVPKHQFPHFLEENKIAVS
Notes: 8-mer, flanks averaged, mean of replicates
TACAAGCA: 0.127
ACTCTAAC: 0.0381
CGATGACC: -0.218
GCGGCTAC: -0.234
ATTATGGG: 0.262
GTCACCAA: 0.0206
ACGTGGTG: -0.229
GCGCGCCC: -0.315
CGTATGGA: 0.0573
GGGTACCC: -0.371
AAGTTGTA: 0.264
AGGACTGA: 0.0214
ACTTCTGA: 0.0914
ACGGCCCC: -0.364
AAGCAGGG: -0.15
CGCCCCCA: -0.27
TCAAATGA: 0.157
TTGCCCAA: 0.0745
CCAGTGGC: -0.339
GGGAATAC: 0.00347
ATTTACTC: 0.158
GCTAGGGA: -0.184
GACGTAGA: -0.172
CACAAGAG: 0.0144
ACGTTTCC: -0.106

Set 6 — method: protein-binding microarray; molecule type: double-stranded DNA, one strand shown; matrix: in vitro; concentration: 250 nM; notes: 60-bp whole probe; added: salmon DNA 0.4 mg/ml; relative to: random background probes; reading: higher = stronger binding; endpoint: log fluorescence; all sequences stand within: GCCTAGCAC … GTCTTGATTCGCTTGACGCTGCTG
Target: Interferon regulatory factor 5, full length, phosphomimetic (IRF5, Homo sapiens, UniProt Q13568-2, residues 1-514, K96S/S451D/S453D/S456D/S462D)
GACGAACTTAGTTTCGAGACGTGCTAG: 6.35 z-score
TTACGTCTCCTTATCCTTTAGTGCTAG: 0.88 z-score
TTAGGTTTCAGTTTCGATTAGTGCTAG: 10.6 z-score
GCCGATATCAGTTTCGAGACGTGCTAG: 7.05 z-score
GACGATCTCAGTTTCCAGACGTGCTAG: 0.201 z-score
TTAGAACTGAGTTTCCATTAGTGCTAG: 1.13 z-score
GACGGTTTGGGTTTCGGGACGTGCTAG: 2.56 z-score
GACGATTTCAGTATGGAGACGTGCTAG: 1.37 z-score
GACGCTATCGGGACTGGAGACGTGCTA: 1.65 z-score
TCATATATGTATATATGACTGTGCTAG: 0.539 z-score
TCAACTCTTTATTTAAGACTGTGCTAG: 0.375 z-score
GACGAACTGAGCCTGGAGACGTGCTAG: -0.648 z-score
GTAGGACTGGGACTGGGTTAGTGCTAG: -0.743 z-score
GGTCATGTCTGTGTCACAGAGTGCTAG: -0.441 z-score
GACGGACTGCTTCTCCAGACGTGCTAG: -0.486 z-score
TTAGGACTGGGTGTCGGTTAGTGCTAG: -0.138 z-score
GACGGTTCCGGATTCGGGACGTGCTAG: 0.131 z-score
TTAGGACTGGCCTATCGGTTAGTGCTA: 1.44 z-score
CTAGGTTTCGACACTGGGTTAGTGCTA: 4.91 z-score
GACGGACTGGACTACCGGGACGTGCTA: -0.656 z-score
TTAGATTTCGGGTTTCGATAAGTGCTA: 8.36 z-score
AAGCCATTGGTCTTCACTTGGTGCTAG: -0.00845 z-score
TTAGATATCGGGACTGGAGTAGTGCTA: 1.12 z-score

Mixed results
PhoQ, residues 284 288 289 292 302 303 SVHLDV  fold induction (PhoP, residues 12 14 15 18 19 LWHCS (Escherichia coli, UniProt P23836); Sort-seq, refers to: YFP reporter; E. coli; PhoQ-PhoP variant library, added: 10 µM Mg2+; relative to: high Mg2+ state, higher = stronger signaling): 1.28

Repeated from above (set 6):
TTAGAACTGAGTTTCCATTAGTGCTAG: 1.13 z-score
TTAGGACTGGCCTATCGGTTAGTGCTA: 1.44 z-score
CTAGGTTTCGACACTGGGTTAGTGCTA: 4.91 z-score
TTACGTCTCCTTATCCTTTAGTGCTAG: 0.88 z-score
GACGATTTCAGTATGGAGACGTGCTAG: 1.37 z-score
GACGGACTGCTTCTCCAGACGTGCTAG: -0.486 z-score
GCCGATATCAGTTTCGAGACGTGCTAG: 7.05 z-score
TTAGGACTGGGTGTCGGTTAGTGCTAG: -0.138 z-score
GTAGGACTGGGACTGGGTTAGTGCTAG: -0.743 z-score
TCAACTCTTTATTTAAGACTGTGCTAG: 0.375 z-score
GACGAACTGAGCCTGGAGACGTGCTAG: -0.648 z-score
GGTCATGTCTGTGTCACAGAGTGCTAG: -0.441 z-score
TCATATATGTATATATGACTGTGCTAG: 0.539 z-score
TTAGATTTCGGGTTTCGATAAGTGCTA: 8.36 z-score
GACGAACTTAGTTTCGAGACGTGCTAG: 6.35 z-score
GACGATCTCAGTTTCCAGACGTGCTAG: 0.201 z-score
